Published values pooled from the literature.
Several values in a cell are separate wells, animals, samples, runs or records. ± marks the error that the study gave.

`COc1cc([C@H]2OC[C@]3(O)[C@@H](c4ccc(O)c(OC)c4)OC[C@H]23)ccc1O` gave an inhibition of 81.6% (SARS-CoV-2; viral replication, mNeonGreen reporter virus; 50 µM).
`Cn1cnc(Cn2c(=O)[nH]/c(=N\c3cc4cn(C)nc4cc3Cl)n(Cc3cc(F)c(F)cc3F)c2=O)n1` has an inhibition of 100% (SARS-CoV-2; viral replication; Vero C1008, wild type; 12.5 µM).
For `O=C(/C=C/c1ccc(O)c(O)c1/C=C/c1ccc(O)c(O)c1)O[C@H](Cc1ccc(O)c(O)c1)C(=O)O`, the inhibition was 0% (SARS-CoV-2; cytopathic effect; Vero E6; 0.7812 µM, first run).
`CCN(CCO)CCCC(C)Nc1ccnc2cc(Cl)ccc12` (stereo not drawn) has an inhibition of 23.7% (SARS-CoV-2; 30 µM).
With `CCOC(=O)c1c(CSc2ccccc2)n(C)c2cc(Br)c(O)c(CN(C)C)c12` the inhibition was 17.5% (SARS-CoV-2; Vero C1008, MEX-BC2/2020; 7.5 µM, 96 h).
With `OC[C@@H]1[C@@H](O)[C@H](O)[C@H]2[C@@H](O)CCN21` the inhibition was 0.55% (SARS-CoV-2; viral replication, mNeonGreen reporter virus; 50 µM).
With `C/C(=C\c1ccc(C(=O)O)s1)c1cc2c(cc1C)C(C)(C)CCC2(C)C` the inhibition was 44.9% (SARS-CoV-2; viral replication; Vero E6, USA-WA1/2020; 2.5 µM).
The inhibition of `Cc1nn(-c2ccc(Cl)cc2)c2c1C(c1ccc(I)cc1)C(C#N)=C(N)O2` (stereo not drawn) is reported as 7.42% (SARS-CoV-2; viral replication; Vero; 1 µM).
`COc1c2c(cc3oc(-c4ccccc4)cc(=O)c13)OC(C)(C)C=C2` gave an inhibition of 97.8% (SARS-CoV-2; viral replication; mNeonGreen reporter; 50 µM).
`COc1ccc(NC(=O)c2ccc(-c3ccc(-c4noc(C)n4)cc3C)cc2)cc1N1CCN(C)CC1` has an inhibition of 41.9% (SARS-CoV-2; viral replication; Vero E6, USA-WA1/2020; 2.5 µM).
For `CC(C)(C)[C@H](NS(=O)(=O)C1CC1)C(=O)N1C[C@H]2[C@@H]([C@H]1C(=O)N[C@H](C#N)C[C@@H]1CCNC1=O)C2(C)C`, the inhibition was 10% (SARS-CoV-2; viral replication, qRT-PCR viral RNA; Vero E6; 1 µM).
With `Cc1cccc(/C=N/Nc2cc(N3CCOCC3)nc(OCCc3ccccn3)n2)c1` the inhibition was 93.8% (SARS-CoV-2; viral replication; Vero E6, USA-WA1/2020; 2.5 µM).
`CC(C)(C)[C@H](NS(=O)(=O)C(F)(F)F)C(=O)N1C[C@H]2[C@@H]([C@H]1C(=O)N[C@H](C#N)C[C@@H]1CCNC1=O)C2(C)C` gave an inhibition of 100% (SARS-CoV-2; viral replication, qRT-PCR viral RNA; Vero E6; 10 µM).
`CC(C)=CCc1c(O)ccc(C(=O)/C=C/c2ccc(O)cc2)c1O` has an inhibition of 0% (SARS-CoV-2; cytopathic effect; Vero E6; 0.7812 µM, first run).
`Cc1nn(-c2ccc(Cl)cc2)c2c1C(c1ccc(Cl)cc1Cl)C(C#N)=C(N)O2` (stereo not drawn) has an inhibition of 67.2% (SARS-CoV-2; viral replication; Vero; 10 µM).
`CCCCc1oc2ccc(C(=O)OC(C)C)cc2c1C(=O)c1ccc(CCCN(CCCC)CCCC)cc1` has an inhibition of 40.8% (SARS-CoV-2; viral replication; Vero C1008, USA-WA1/2020; 2.5 µM, reconfirmation).
The inhibition of `O=C(CSc1nc2ccccc2c(=O)[nH]1)NNC(=O)c1ccccc1Br` is reported as 37.3 ± 6.43% (SARS-CoV-2; virucidal activity, plaque reduction; 62.5 µM).
`CN1C(=O)CN=C(C2=CCCCC2)c2cc(Cl)ccc21` gave an inhibition of 48.4% (SARS-CoV-2; viral replication; Vero C1008, USA-WA1/2020; 2.5 µM, reconfirmation).
With `O=C[C@H](C[C@@H]1CCNC1=O)NC(=O)[C@H](CC1CCCCC1)NC(=O)c1cc2ccccc2[nH]1` the inhibition was 86.2% and 99.6% (SARS-CoV-2; viral replication, NP immunofluorescence; Vero E6, 2019-nCoV-WIV04; 2.5 µM, together with: remdesivir 0 µM).
`O=C(O[C@@H]1Cc2c(O)cc(O)cc2O[C@@H]1c1cc(O)c(O)c(O)c1)c1cc(O)c(O)c(O)c1` has an inhibition of 0% (SARS-CoV-2; viral cytopathic effect; Vero E6; 0.7812 µM).
`Nc1ncnc2c([C@@H]3N[C@H](CO)[C@@H](O)[C@H]3O)c[nH]c12` gave an antigen-positive cells of 60% (Zaire ebolavirus; antibody staining; HeLa, Kikwit; 0.8 µM).
The inhibition of `CN(C)CCn1c(C(=O)N2CCN(c3ccccc3Cl)CC2)c(C(c2ccc(O)cc2)c2ccc(O)cc2)c2ccccc21` is reported as 55.3% (SARS-CoV-2; viral replication; Vero E6, USA-WA1/2020; 2.5 µM).
With `O=C(CSc1nc2c(c(=O)[nH]1)CCCC2)NNC(=O)c1ccc(Cl)cc1` the inhibition was 6.7 ± 6.65% (SARS-CoV-2; viral adsorption, plaque reduction; 31.25 µM).
`CCN1c2ncc(CCOc3cc[n+]([O-])c4ccccc34)cc2C(=O)N(C)c2cccnc21` has an inhibition of 43.6% (SARS-CoV-2; viral replication; Vero E6, USA-WA1/2020; 2.5 µM).
With `Cc1nn(-c2ccc(Cl)cc2)c2c1C(c1ccc(Br)cc1)C(C#N)=C(N)O2` (stereo not drawn) the inhibition was 42.2% (SARS-CoV-2; viral replication; Vero; 10 µM).
With `O=C(CSc1nc2c(c(=O)[nH]1)CCCC2)NNC(=O)c1ccc([N+](=O)[O-])cc1` the inhibition was 33.6 ± 6.03% (SARS-CoV-2; virucidal activity, plaque reduction; 62.5 µM).
`COc1ccc(C[C@@H]2c3cc(Oc4cc(C[C@@H]5c6cc(O)c(OC)cc6CCN5C)ccc4O)c(OC)cc3CCN2C)cc1` has an inhibition of 0% (SARS-CoV-2; cytopathic effect; Vero C1008; 0.7812 µM).
`CC(C)=CCN1Cc2cc(Cl)cc3[nH]c(=S)n(c23)C[C@@H]1C` has an inhibition of 79.1% (SARS-CoV-2; viral replication; Vero E6, USA-WA1/2020; 2.5 µM).
With `CC(C)(C)[C@H](NC(=O)C(F)(F)F)C(=O)N1C[C@H]2[C@@H]([C@H]1C(=O)N[C@H](C#N)C[C@@H]1CCNC1=O)C2(C)C` the inhibition was 1.25% and 1.54% and 7.67% (SARS-CoV-2; viral replication; Vero E6; 0.313 µM).
`CC[C@H](C)[C@H](NC(=O)[C@H](CC(C)C)NC(=O)[C@H](Cc1c[nH]c2ccccc12)NC(=O)[C@H](CCC(N)=O)NC(=O)[C@@H](NC(=O)[C@H](Cc1ccccc1)NC(=O)[C@H](C)NC(=O)[C@H](CCCCNC(=O)COCCOCCNC(=O)COCCOCCNC(=O)CC[C@H](NC(=O)CCCCCCCCCCCCCCCCCCC(=O)O)C(=O)O)NC(=O)[C@H](CCC(N)=O)NC(=O)[C@H](C)NC(=O)[C@@H](NC(=O)[C@H](CCCCN)NC(=O)[C@H](CC(=O)O)NC(=O)[C@H](CC(C)C)NC(=O)C(C)(C)NC(=O)[C@@H](NC(=O)[C@H](CO)NC(=O)[C@H](Cc1ccc(O)cc1)NC(=O)[C@H](CC(=O)O)NC(=O)[C@H](CO)NC(=O)[C@@H](NC(=O)[C@H](Cc1ccccc1)NC(=O)[C@@H](NC(=O)CNC(=O)[C@H](CCC(=O)O)NC(=O)C(C)(C)NC(=O)[C@@H](N)Cc1ccc(O)cc1)[C@@H](C)O)[C@@H](C)O)[C@@H](C)CC)[C@@H](C)CC)C(C)C)C(=O)N[C@@H](C)C(=O)NCC(=O)NCC(=O)N1CCC[C@H]1C(=O)N[C@@H](CO)C(=O)N[C@@H](CO)C(=O)NCC(=O)N[C@@H](C)C(=O)N1CCC[C@H]1C(=O)N1CCC[C@H]1C(=O)N1CCC[C@H]1C(=O)N[C@@H](CO)C(N)=O` — result for “pulse rate change”: 4.95 bpm (healthy subjects; 4.5 mg, day 29, multiple ascending dose, LS mean; reference: baseline).
